Assay results gathered from unrelated publications.
Parts stem from different laboratories: compare values within a part only.
Sequence of UniProt P07949 (whole entry, unmodified, looked up): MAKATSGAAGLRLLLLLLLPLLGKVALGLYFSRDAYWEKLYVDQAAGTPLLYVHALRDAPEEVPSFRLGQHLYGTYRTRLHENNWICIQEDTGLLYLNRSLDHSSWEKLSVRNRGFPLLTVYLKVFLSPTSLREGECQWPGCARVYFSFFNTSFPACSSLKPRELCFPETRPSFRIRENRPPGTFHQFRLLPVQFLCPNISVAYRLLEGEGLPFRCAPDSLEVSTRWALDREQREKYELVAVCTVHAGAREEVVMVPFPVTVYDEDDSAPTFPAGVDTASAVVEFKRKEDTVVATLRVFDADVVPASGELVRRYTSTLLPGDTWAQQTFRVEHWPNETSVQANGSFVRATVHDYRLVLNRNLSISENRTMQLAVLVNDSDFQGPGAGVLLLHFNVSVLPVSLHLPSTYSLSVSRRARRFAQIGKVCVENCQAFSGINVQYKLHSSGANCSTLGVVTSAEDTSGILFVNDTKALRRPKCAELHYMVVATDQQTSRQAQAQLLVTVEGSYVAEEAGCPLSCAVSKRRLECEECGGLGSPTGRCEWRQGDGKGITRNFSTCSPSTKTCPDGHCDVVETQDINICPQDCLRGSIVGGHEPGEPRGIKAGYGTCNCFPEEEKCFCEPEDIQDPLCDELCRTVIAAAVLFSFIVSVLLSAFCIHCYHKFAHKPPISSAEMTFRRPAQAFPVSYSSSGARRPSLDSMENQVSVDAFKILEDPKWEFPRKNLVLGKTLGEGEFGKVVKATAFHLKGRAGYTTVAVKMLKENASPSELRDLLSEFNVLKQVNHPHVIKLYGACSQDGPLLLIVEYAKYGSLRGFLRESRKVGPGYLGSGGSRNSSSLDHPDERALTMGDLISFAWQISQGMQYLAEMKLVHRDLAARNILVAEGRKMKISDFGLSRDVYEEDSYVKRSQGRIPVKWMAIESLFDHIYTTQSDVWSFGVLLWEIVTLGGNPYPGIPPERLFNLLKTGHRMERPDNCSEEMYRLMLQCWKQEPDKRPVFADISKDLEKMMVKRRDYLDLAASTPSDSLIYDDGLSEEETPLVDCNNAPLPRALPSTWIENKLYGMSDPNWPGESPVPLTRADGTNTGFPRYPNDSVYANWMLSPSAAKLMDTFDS
Sequence of UniProt Q9UHD2 (whole entry, looked up): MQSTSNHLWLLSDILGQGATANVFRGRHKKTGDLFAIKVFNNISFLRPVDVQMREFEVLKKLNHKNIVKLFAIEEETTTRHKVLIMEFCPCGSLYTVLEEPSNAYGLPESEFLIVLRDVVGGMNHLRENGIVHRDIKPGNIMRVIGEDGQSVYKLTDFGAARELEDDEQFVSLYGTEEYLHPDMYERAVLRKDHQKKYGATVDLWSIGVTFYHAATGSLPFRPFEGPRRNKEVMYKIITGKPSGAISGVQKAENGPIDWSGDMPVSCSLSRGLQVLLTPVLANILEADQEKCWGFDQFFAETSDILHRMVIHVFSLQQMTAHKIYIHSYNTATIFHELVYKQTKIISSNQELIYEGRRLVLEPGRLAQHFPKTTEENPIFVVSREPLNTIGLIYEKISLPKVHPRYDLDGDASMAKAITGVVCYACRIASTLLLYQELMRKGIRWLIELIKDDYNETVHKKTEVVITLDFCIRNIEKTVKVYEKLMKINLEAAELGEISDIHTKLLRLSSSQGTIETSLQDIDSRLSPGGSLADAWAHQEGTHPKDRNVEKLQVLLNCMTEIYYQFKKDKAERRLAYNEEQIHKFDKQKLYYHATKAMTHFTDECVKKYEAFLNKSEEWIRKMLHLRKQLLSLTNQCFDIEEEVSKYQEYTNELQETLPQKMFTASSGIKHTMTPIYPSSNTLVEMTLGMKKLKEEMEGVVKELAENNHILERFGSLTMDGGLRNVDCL
Sequence of UniProt Q9Y243 (whole entry, looked up): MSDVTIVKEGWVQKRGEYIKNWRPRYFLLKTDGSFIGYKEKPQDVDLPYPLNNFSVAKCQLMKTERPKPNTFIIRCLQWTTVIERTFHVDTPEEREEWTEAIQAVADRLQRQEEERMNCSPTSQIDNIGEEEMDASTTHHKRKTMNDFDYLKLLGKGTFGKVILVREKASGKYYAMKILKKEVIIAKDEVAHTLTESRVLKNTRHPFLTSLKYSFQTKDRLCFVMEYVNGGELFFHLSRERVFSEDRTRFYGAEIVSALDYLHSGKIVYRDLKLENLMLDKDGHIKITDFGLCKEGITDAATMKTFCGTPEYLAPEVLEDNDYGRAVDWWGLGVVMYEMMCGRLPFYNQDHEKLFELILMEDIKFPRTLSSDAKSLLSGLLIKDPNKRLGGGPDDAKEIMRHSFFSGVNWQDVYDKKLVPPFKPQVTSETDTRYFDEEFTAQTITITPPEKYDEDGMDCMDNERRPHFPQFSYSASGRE
Sequence of UniProt Q8TF76 (whole entry, looked up): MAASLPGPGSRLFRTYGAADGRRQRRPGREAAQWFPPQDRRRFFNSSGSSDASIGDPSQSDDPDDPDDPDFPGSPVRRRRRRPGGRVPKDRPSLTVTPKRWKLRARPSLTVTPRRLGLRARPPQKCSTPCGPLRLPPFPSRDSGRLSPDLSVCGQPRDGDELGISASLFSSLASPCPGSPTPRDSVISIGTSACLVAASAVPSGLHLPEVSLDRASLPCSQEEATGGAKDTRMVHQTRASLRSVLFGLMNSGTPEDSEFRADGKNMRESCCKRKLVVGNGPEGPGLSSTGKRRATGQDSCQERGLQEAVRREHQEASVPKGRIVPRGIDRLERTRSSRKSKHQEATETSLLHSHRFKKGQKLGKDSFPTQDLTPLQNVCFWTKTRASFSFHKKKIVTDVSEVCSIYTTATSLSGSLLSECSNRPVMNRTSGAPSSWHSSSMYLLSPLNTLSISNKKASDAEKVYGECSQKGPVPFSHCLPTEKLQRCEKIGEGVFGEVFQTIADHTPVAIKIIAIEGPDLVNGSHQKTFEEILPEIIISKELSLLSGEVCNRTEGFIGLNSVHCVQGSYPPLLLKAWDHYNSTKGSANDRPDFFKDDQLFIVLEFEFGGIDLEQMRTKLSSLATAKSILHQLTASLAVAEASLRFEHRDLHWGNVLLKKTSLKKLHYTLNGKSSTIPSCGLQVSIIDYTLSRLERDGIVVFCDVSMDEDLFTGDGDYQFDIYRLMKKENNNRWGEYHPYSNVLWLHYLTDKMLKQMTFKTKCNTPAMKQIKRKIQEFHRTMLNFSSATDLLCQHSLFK
Sequence of UniProt O14730 (whole entry, looked up): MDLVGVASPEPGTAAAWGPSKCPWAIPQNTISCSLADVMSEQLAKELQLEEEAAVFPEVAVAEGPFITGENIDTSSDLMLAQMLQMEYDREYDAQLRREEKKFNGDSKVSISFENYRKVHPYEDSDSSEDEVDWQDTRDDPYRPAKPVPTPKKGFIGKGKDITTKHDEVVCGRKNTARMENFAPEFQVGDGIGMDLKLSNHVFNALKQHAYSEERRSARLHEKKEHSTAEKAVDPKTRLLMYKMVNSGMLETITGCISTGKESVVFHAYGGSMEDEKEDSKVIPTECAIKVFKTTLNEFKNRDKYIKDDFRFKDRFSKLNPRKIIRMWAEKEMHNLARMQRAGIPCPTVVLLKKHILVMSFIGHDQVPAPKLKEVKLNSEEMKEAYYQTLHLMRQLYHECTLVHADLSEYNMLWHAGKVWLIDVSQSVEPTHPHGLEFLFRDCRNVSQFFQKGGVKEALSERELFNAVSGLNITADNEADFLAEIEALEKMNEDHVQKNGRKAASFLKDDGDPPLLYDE
Sequence of UniProt Q96D53 (whole entry, looked up): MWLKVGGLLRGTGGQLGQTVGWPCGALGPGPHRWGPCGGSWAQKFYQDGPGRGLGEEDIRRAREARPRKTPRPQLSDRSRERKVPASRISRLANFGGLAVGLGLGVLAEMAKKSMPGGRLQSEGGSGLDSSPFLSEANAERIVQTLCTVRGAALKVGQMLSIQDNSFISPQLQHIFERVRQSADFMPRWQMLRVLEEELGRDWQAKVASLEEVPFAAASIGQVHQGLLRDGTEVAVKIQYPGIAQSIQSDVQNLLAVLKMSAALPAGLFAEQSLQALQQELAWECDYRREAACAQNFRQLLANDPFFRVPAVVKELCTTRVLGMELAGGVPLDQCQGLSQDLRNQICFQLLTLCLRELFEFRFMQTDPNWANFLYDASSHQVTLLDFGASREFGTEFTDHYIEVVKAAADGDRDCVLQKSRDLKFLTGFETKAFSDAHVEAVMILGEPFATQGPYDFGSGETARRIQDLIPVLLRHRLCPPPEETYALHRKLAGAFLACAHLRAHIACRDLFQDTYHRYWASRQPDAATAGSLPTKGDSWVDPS
Sequence of UniProt P61075 (whole entry, looked up): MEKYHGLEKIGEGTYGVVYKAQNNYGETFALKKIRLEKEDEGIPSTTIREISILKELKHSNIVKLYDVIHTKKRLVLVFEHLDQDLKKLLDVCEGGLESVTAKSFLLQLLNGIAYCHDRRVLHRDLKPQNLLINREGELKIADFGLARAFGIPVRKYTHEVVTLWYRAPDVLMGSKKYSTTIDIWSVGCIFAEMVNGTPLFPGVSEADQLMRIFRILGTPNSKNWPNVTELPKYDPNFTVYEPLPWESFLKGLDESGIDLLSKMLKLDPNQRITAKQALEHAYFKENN

Sample 1
Target: Ribosomal protein S6 kinase beta-2 (RPS6KB2, Homo sapiens, UniProt Q9UBS0)
Sequence of UniProt Q9UBS0 (whole entry, looked up): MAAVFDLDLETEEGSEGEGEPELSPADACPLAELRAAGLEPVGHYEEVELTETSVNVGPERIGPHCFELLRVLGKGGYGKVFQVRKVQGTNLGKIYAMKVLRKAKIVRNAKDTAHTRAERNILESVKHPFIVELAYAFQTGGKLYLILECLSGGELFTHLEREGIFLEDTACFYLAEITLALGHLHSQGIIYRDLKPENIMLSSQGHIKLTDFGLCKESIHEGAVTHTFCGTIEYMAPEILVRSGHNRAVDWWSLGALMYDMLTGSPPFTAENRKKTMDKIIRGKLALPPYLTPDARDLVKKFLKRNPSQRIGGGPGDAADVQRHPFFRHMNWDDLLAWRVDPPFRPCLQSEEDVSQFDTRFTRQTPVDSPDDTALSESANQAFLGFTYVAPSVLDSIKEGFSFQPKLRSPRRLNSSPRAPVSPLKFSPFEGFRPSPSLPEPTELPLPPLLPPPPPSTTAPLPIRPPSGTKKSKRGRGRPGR
Read-out: enzyme activity
Action: inhibitor
Tested at: 0.5 µM
Baseline: control
| Structure (SMILES) | remaining activity [%] |
| --- | --- |
| Nc1[nH]nc2nc3ccccc3nc12 | 102 |
| COc1cc2ncnc(Nc3ccc(F)c(Cl)c3)c2cc1OCCCN1CCOCC1 | 101 |
| COc1cc2nccc(Oc3ccc(NC(=S)NC(=O)c4ccccc4C)cc3)c2cc1OC | 97.3 |
| CCOC(=O)c1c(C)[nH]c(/C=C2\C(=O)Nc3ccccc32)c1C | 103 |
| Nc1ccc2ncnc(NCCc3ccc(Oc4ccccc4)cc3)c2c1 | 99.2 |
| Cn1sc(=O)n(Cc2ccccc2)c1=O | 101 |
| O=C(O)c1ccc2c3c1cccc3c(=O)n1c3ccccc3nc21 | 98 |
| Cc1ccc(Nc2nccc(N(C)c3ccc4c(C)n(C)nc4c3)n2)cc1S(N)(=O)=O | 103 |
| O=S(=O)(c1cccc2cnccc12)N1CCCNCC1 | 81.9 |
| COc1ccc(C(=O)Nc2sc3c(c2C(N)=O)CCCC3)cc1OC | 101 |
| N#CC(C#N)=C(N)/C(C#N)=C/c1ccc(O)cc1 | 96.8 |
| CNC(=O)c1cc(Oc2ccc(NC(=O)Nc3ccc(Cl)c(C(F)(F)F)c3)cc2)ccn1 | 103 |
| O=C(Nc1cccc(Nc2cc(Nc3cccc(C(F)(F)F)c3)ncn2)c1)C1CC1 | 103 |
| Nc1ncnc2n[nH]c(Nc3ccc(F)cc3)c12 | 96.8 |
| COc1ccc(OC)c2c(=S)c3ccccc3[nH]c12 | 105 |
| Cc1cccc(-c2[nH]c(C(C)(C)C)nc2-c2ccc3c(c2)OCO3)n1 | 102 |

Sample 2
Structure (SMILES): CO[C@@H]1[C@H](N(C)C(=O)c2ccccc2)C[C@H]2O[C@]1(C)n1c3ccccc3c3c4c(c5c6ccccc6n2c5c31)C(=O)NC4
Action: inhibitor
Tested at: 1 µM
| target | assay | inhibition |
| --- | --- | --- |
| HASPIN (Homo sapiens, UniProt Q8TF76) | enzyme activity | 20% |
| RET (Homo sapiens, UniProt P07949, M918T) | enzyme activity | 95% |
| EIF2AK4 (Homo sapiens, UniProt Q9P2K8, S808G) | – | 99% |
| CHEK1 (Homo sapiens, UniProt O14757) | enzyme activity | 32% |
| AKT3 (Homo sapiens, UniProt Q9Y243) | enzyme activity | 0% |
| RIOK3 (Homo sapiens, UniProt O14730) | enzyme activity | 100% |
| CRK2 (Plasmodium falciparum, UniProt P61075) | enzyme activity | 9% |
| COQ8B (Homo sapiens, UniProt Q96D53) | enzyme activity | 0% |
| TBK1 (Homo sapiens, UniProt Q9UHD2) | enzyme activity | 98% |

Sample 3
Cell line: A-375
Tested at: 100 µM
Time: 36 h
| SMILES | viability |
| --- | --- |
| O=C(NC[C@H]1CN(c2ccc(N3CCOCC3=O)cc2)C(=O)O1)c1ccc(Cl)s1 | 93.7% |
| CCCCCCCCCC[C@H](C(=O)O)[C@]1(C(=O)O)CCC(=O)O1 | 107% |
| COc1cc([C@@H]2c3cc4c(cc3[C@@H](O[C@@H]3O[C@@H]5CO[C@@H](C)O[C@H]5[C@H](O)[C@H]3O)[C@H]3COC(=O)[C@H]23)OCO4)cc(OC)c1O | 97.7% |
| COc1ccc(-c2cc(=O)c3c(O)c(OC)c(O)cc3o2)cc1OC | 90.9% |
| COC(=O)Nc1nc2ccc(Sc3ccccc3)cc2[nH]1 | 15.8% |
| O=C(O)CCn1c2c(c3ccccc31)C[C@H](NS(=O)(=O)c1ccc(F)cc1)CC2 | 103% |
| CC[C@H]1OC(=O)[C@H](C)[C@@H](O[C@H]2C[C@@](C)(OC)[C@@H](O)[C@H](C)O2)[C@H](C)[C@@H](O[C@@H]2O[C@H](C)C[C@H](N(C)C)[C@H]2O)[C@](C)(O)C[C@@H](C)CN(C)[C@H](C)[C@@H](O)[C@]1(C)O | 89.3% |
| CC(=O)[C@@]1(O)CC[C@H]2[C@@H]3C[C@H](C)C4=CC(=O)C=C[C@]4(C)[C@@]3(F)[C@@H](O)C[C@@]21C | 98.5% |
| C[C@@H]1CN(c2c(F)c(N)c3c(=O)c(C(=O)O)cn(C4CC4)c3c2F)C[C@H](C)N1 | 25.8% |
| CN[C@@H]1[C@@H](O)[C@@H](O[C@@H]2[C@@H](O)[C@H](O[C@H]3OC(CN)=CC[C@H]3N)[C@@H](N)C[C@H]2N)OC[C@]1(C)O | 110% |

Sample 4
Read-out: AlphaScreen signal
Technique: AlphaScreen counter screen
Sample: His6 peptide without bromodomain
Tested at: 50 µM
Setting: assay interference check
| Compound | inhibition |
| --- | --- |
| COc1cc2c(Oc3ccc4[nH]c(C)cc4c3F)ncnc2cc1OCCCN1CCCC1 | 45% |
| CCOC(=O)c1cccc(Nc2nc(N)nc3[nH]cnc23)c1 | 9.1% |
| C#Cc1cccc(Nc2ncnc3cc(OC)c(OCCCCCCC(=O)NO)cc23)c1 | 34.3% |
| Cc1ccc(F)c(NC(=O)Nc2ccc(-c3cccc4[nH]nc(N)c34)cc2)c1 | 66.4% |
| CC(C)CCN1c2nc(Nc3cc(F)c(O)c(F)c3)ncc2N(C)C(=O)C1C (centres unmarked) | 46.2% |
| CN1CCN(c2nc(C3=C(c4c[nH]c5ccccc45)C(=O)NC3=O)c3ccccc3n2)CC1 | 78.1% |
| COc1ccc(N(C)C(=S)Nc2ccc3nc[nH]c(=O)c3c2)cc1 | 10.3% |
| CC(=O)Nc1ccc(Nc2nc(-c3sc(N)nc3C)cs2)cc1 | 61.5% |
| Cl.Oc1ccc(-c2nc(-c3ccc(F)cc3)c(-c3ccncc3)[nH]2)cc1 | 48.5% |
